Experimental data of several laboratories.
Every numbered part comes from another study and shows a few of its results, in no order.
UniProt P36896, sequence (whole entry, looked up): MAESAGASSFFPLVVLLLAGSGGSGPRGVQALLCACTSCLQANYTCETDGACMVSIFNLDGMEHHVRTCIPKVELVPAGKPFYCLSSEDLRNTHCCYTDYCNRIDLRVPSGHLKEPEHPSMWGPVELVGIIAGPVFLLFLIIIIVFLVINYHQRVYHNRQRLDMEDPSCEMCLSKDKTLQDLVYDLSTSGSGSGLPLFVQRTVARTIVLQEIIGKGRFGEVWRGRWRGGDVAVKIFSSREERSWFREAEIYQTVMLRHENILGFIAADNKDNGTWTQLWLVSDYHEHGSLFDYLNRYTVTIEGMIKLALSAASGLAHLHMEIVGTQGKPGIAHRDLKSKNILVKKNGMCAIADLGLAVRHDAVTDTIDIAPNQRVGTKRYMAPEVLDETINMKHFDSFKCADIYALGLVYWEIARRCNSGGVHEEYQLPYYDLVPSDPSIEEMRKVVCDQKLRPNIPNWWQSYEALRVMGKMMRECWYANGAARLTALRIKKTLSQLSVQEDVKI
UniProt Q15759, sequence (whole entry, looked up): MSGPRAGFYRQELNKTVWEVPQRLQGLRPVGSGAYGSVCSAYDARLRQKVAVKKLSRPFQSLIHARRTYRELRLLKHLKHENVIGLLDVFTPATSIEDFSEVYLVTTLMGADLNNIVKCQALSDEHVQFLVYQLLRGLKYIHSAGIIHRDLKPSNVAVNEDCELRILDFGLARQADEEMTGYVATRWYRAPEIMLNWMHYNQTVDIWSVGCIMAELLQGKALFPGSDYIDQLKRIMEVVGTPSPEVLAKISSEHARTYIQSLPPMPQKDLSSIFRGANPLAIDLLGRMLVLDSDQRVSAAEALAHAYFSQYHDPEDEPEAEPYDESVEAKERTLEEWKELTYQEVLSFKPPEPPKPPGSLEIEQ
UniProt P27361, sequence (whole entry, looked up): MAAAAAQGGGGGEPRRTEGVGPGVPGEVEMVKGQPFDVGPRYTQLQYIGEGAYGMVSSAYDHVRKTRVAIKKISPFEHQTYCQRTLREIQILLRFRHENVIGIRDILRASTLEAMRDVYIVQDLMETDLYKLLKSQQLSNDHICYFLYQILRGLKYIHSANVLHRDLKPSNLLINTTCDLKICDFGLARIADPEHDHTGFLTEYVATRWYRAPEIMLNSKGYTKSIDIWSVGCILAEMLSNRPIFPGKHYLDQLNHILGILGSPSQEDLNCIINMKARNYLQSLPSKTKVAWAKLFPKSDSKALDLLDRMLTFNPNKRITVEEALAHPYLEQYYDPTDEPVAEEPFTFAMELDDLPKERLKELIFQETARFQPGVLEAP
UniProt P11362, sequence (whole entry, looked up): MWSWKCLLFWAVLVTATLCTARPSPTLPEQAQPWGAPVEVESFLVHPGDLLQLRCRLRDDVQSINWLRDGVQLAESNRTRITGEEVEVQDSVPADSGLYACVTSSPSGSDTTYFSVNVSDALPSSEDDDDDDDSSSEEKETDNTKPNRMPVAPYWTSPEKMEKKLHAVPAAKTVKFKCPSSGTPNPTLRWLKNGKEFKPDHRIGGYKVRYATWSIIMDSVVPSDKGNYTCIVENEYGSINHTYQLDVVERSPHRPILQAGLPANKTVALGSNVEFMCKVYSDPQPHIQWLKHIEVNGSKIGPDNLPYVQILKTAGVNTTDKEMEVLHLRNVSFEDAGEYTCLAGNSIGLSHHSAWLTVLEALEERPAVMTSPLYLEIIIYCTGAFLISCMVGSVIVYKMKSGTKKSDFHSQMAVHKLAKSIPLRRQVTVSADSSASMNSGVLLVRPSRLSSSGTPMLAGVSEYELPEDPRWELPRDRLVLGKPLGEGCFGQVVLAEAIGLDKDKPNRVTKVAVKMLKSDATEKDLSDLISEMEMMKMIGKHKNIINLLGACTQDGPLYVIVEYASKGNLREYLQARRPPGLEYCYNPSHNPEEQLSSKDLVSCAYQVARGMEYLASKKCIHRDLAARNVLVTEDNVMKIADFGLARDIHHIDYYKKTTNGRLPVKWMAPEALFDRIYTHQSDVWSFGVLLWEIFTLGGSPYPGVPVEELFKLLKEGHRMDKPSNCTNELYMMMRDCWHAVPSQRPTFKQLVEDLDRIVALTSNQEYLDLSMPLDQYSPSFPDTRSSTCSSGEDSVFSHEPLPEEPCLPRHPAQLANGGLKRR
UniProt O94804, sequence (whole entry, looked up): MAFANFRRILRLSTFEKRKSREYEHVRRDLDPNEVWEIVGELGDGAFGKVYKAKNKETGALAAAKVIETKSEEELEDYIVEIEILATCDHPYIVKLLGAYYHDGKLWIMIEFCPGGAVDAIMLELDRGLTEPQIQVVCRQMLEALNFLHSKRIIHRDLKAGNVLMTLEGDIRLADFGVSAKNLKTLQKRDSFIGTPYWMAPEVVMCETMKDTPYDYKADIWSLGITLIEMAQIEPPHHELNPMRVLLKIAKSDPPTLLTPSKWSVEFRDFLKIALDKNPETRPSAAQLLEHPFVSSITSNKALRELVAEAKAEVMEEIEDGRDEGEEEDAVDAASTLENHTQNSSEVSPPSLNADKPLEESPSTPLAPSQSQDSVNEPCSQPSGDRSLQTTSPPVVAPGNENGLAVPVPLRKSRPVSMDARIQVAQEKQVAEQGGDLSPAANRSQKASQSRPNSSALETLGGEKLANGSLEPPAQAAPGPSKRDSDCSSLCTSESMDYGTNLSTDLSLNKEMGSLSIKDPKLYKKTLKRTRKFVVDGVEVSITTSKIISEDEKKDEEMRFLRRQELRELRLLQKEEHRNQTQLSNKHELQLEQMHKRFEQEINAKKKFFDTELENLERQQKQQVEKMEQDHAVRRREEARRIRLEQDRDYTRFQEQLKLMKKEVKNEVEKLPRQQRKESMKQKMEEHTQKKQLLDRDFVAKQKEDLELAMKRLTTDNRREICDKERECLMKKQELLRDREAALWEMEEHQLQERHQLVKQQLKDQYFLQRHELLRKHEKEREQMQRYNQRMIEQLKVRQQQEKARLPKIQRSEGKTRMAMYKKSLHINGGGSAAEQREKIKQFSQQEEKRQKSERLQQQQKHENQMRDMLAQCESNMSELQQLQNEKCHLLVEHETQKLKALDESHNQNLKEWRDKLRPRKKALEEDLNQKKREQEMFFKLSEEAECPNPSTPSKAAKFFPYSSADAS
UniProt Q9UHD2, sequence (whole entry, looked up): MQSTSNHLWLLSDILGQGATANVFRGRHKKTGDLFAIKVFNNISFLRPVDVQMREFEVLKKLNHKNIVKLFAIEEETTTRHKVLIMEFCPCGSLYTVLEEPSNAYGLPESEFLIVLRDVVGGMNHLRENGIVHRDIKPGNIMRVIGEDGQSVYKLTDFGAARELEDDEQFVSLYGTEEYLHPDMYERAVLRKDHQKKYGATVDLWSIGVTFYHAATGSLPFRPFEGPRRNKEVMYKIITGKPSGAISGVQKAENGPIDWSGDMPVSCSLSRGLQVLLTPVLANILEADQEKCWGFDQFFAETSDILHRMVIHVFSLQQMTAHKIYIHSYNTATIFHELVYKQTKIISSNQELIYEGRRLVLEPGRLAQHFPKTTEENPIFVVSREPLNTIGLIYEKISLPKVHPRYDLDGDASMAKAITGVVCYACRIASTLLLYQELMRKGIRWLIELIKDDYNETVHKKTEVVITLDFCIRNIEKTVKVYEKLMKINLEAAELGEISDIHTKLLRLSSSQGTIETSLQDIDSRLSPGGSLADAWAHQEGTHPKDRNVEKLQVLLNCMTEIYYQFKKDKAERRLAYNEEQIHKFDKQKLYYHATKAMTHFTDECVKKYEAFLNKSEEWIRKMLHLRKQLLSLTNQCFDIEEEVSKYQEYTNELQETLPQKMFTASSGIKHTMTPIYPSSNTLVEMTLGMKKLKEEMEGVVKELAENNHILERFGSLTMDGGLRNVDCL
UniProt P42336, sequence (whole entry, unmodified, looked up): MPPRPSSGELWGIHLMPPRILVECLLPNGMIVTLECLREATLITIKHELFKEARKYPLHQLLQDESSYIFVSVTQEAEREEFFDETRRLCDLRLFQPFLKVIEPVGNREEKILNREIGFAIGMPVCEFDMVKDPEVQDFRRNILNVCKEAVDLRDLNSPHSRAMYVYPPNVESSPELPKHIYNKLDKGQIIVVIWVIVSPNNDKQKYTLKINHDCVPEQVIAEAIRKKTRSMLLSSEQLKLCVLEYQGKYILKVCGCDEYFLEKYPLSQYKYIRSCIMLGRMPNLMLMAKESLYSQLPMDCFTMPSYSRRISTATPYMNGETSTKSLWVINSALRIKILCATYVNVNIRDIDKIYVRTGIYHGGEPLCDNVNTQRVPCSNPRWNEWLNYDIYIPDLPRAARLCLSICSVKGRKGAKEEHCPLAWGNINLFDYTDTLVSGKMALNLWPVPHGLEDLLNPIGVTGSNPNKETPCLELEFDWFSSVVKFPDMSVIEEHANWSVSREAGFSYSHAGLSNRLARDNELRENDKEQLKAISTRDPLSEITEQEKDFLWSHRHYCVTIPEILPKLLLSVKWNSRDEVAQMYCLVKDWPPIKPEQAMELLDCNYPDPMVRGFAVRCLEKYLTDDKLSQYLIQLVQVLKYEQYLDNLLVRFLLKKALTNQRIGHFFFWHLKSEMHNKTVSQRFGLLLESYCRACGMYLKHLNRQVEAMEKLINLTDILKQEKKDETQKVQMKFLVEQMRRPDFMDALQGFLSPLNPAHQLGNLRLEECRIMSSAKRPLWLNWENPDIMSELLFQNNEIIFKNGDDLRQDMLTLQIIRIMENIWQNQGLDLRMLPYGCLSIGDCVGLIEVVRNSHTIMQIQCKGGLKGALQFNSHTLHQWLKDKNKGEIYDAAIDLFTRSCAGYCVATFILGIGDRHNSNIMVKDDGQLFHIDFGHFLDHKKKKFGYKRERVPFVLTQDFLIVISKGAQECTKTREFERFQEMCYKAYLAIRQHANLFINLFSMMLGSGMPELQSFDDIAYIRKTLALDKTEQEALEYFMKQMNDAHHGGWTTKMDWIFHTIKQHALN

Sample 1 — method: universal PBM; form: double-stranded DNA, one strand shown; sample: in vitro; tested at: not given; reading: higher = stronger binding
Target: Sal-like protein 4, full length isoform B (SALL4, Homo sapiens, UniProt Q9UJQ4-2, residues 1-616)
Setting: 8-mer, flanks averaged, mean of replicates
Residues (chain): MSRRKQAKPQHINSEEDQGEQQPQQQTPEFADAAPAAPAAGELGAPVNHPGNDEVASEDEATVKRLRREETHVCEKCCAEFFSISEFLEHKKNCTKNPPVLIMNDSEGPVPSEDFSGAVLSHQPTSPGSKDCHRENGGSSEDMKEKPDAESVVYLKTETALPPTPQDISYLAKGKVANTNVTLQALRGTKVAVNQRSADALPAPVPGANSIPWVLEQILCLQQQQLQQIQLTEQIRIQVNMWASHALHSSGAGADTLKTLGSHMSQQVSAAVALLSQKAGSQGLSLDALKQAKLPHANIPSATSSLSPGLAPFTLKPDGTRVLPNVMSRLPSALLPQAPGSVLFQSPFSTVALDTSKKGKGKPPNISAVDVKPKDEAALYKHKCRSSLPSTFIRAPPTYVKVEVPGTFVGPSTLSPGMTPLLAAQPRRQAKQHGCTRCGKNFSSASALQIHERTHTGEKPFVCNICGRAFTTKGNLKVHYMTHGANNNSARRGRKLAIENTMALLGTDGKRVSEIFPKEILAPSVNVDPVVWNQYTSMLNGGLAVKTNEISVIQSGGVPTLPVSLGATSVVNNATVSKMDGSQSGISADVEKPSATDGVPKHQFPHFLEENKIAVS
Strand	E-score
CTCTGGAC	-0.116
AACAGGAA	0.187
ATTCATGG	0.122
AGACTATA	0.15
ATTAATCG	0.252
CGGATGTC	-0.193
GAGGATCC	-0.226
AAGAATCC	-0.00708

Sample 2 — Structure (SMILES): CC(C)n1cnc2c(Nc3cccc(Cl)c3)nc(NCCO)nc21; observed: enzyme activity; mode: inhibitor; tested at: 0.5 µM; baseline: control
target	remaining activity [%]
ACVR1B (Homo sapiens, UniProt P36896)	101
CSNK1G2 (Homo sapiens, UniProt P78368)	20.6
MAPK3 (Homo sapiens, UniProt P27361)	111
LCK (Homo sapiens, UniProt P06239)	84.9
FRK (Homo sapiens, UniProt P42685)	94.2
WEE1 (Homo sapiens, UniProt P30291)	98.9
ARAF (Homo sapiens, UniProt P10398)	107
GRK7 (Homo sapiens, UniProt Q8WTQ7)	88.7
MERTK (Homo sapiens, UniProt Q12866)	89.7
TAOK2 (Homo sapiens, UniProt Q9UL54)	97.2
TBK1 (Homo sapiens, UniProt Q9UHD2)	89.2
FGFR1 (Homo sapiens, UniProt P11362)	84.2
MAP3K5 (Homo sapiens, UniProt Q99683)	114

Sample 3 — method: RNA Bind-n-Seq; form: RNA; sample: in vitro; tested at: 20 nM; setting: 6-mer, flanks averaged, single round; with: 150 mM LiCl; baseline: input library; reading: higher = stronger binding
Target: TAR DNA-binding protein 43, full length, His tag (TARDBP, Homo sapiens, UniProt Q13148, residues 1-414)
Strand	6-mer enrichment (R)
GCGAGU	1.11
ACGUUA	0.895
GGGUGA	1.37
GGUUCA	0.916
UCGGUG	1.08
GCGCAG	1.02
CCACCA	0.994
UAUCGC	0.86

Sample 4 — observed: cell-free assay; method: competition with immobilised ligand; tested at: 1 µM
SMILES: O=C(Nc1cccnn1)N1CC(C/C=C/c2cncc(Oc3ccc(C(F)(F)F)cn3)n2)C1
target	remaining binding [%]
PIK3CA (Homo sapiens, UniProt P42336, E542K)	88
MAPK11 (Homo sapiens, UniProt Q15759)	100
GSK3B (Homo sapiens, UniProt P49841)	77
MET (Homo sapiens, UniProt P08581, M1250T)	100
Ribosomal protein S6 kinase alpha-6, C-terminal kinase domain (RPS6KA6, Homo sapiens, UniProt Q9UK32)	89
SIK2 (Homo sapiens, UniProt Q9H0K1)	100
STK10 (Homo sapiens, UniProt O94804)	94

Some of these lines once more (sample 2):
target	remaining activity [%]
ACVR1B (Homo sapiens, UniProt P36896)	101
FGFR1 (Homo sapiens, UniProt P11362)	84.2
WEE1 (Homo sapiens, UniProt P30291)	98.9
